Measured values from different studies.
Each line is one published result; not all experiments were run side by side. Numbers after ± are the reported error.
TMED9: TMED9 (Homo sapiens, UniProt Q9BVK6)
B1: ENAH EVH1 domain 1-113 (Homo sapiens, UniProt Q8N8S7); chain MSEQSICQARAAVMVYDDANKKWVPAGGSTGFSRVHIYHHTGNNTFRVVGRKIQDHQVVINCAIPKGLKYNQATQTFHQWRDARQVYGLNFGSKEDANVFASAMMHALEVLNS
Chain of UniProt Q9NUX5 (whole entry, looked up): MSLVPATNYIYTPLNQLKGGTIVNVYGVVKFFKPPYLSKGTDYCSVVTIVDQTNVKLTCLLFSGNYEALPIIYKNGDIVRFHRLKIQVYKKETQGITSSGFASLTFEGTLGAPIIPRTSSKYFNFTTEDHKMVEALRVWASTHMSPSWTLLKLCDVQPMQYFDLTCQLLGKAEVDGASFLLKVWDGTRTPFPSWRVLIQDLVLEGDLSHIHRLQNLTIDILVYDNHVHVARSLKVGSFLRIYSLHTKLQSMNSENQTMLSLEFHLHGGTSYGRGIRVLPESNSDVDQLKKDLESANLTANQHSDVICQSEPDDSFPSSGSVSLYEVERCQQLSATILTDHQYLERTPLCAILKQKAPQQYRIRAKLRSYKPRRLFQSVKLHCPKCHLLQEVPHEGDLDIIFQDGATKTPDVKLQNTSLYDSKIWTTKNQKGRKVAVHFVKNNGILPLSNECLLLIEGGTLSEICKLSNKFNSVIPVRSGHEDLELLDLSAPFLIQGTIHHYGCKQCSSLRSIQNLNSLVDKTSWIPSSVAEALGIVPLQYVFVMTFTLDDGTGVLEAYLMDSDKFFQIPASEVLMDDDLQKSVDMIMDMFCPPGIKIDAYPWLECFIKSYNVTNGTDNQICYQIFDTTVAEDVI
Chain of UniProt P47871 (whole entry, looked up): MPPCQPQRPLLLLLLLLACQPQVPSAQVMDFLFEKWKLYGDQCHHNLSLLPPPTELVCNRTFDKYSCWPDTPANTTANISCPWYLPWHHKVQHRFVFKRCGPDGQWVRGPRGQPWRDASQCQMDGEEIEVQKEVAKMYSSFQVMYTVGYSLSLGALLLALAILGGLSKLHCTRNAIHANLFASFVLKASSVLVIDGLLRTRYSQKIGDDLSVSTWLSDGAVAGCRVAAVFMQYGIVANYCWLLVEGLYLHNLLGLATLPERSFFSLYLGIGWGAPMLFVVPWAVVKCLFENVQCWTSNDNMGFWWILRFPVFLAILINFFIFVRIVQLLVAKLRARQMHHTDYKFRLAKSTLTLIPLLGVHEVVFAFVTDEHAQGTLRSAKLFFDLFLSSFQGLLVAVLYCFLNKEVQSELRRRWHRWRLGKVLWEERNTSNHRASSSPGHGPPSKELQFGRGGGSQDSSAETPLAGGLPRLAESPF
Chain of UniProt P25103 (whole entry, looked up): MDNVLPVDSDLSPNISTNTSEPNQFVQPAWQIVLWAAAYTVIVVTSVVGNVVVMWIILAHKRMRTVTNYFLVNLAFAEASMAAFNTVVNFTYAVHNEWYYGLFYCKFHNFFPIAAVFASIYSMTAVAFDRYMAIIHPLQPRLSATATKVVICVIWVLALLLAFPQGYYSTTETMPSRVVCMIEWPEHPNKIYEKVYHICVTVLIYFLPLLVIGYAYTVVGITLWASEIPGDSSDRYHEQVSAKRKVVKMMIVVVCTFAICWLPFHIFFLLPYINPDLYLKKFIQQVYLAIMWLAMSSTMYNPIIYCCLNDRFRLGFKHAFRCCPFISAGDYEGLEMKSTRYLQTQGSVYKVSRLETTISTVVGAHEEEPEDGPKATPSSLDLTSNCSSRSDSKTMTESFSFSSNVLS

`PDCD1 extracellular , Fc fusion G124S/K131Y/A132I (Homo sapiens)` has an EC50 of 0.03 nM (CD274 fragment (Homo sapiens); ELISA).
`TMED10 (Homo sapiens, UniProt P49755)` — result for cross-linked residues: “K145 to K160” (TMED9; cross-linking MS; cell fractions; together with: DSSO).
With `B1 (ENAH EVH1 domain 1-113)` the Kd was 4800 nM (PCARE peptide (Homo sapiens); ITC).
With `EGF (Homo sapiens)` the EC50 was 10.5 nM (EGFR (Homo sapiens, UniProt P00533); Grb2 recruitment BRET ratio, agonist, BRET; HEK293T; transient expression).
With `APP Aβ1-42, HiLyte Fluor 488 label (UniProt P05067)` the Kd was 6300 ± 1700 nM (MAPT (Homo sapiens, UniProt P10636-8); fluorescence polarisation; without microtubules).
`SQETFSDLWKLLPENN` has an enrichment score of 1.71 (human cyclin E1-Cln2 fusion; cell growth, competitive growth sequencing; peptide, Saccharomyces cerevisiae; peptide tiling library; direction not given).
For `glucagon`, the EC50 was greater than 1000 nM (GLP1R (Homo sapiens, UniProt P43220); GLP-1R activation, CRE luciferase reporter, agonist; HEK293; stable human GLP-1R expression).
`EGF mature (Homo sapiens)` gave a Kd of 397 ± 94 nM (EGFR 25-645, fluorescent label (Homo sapiens, UniProt P00533); MST).
Under cross-linked residues, `TMED10 (Homo sapiens, UniProt P49755)` is recorded as “K145 to K160” (TMED9; cross-linking MS; cells; together with: BSPNO).
For `ACD/Tpp1 chimera fragment P1 region swapped for mouse (Homo sapiens)`, the relative binding was 40 ± 6.2% (POT1 (Homo sapiens, UniProt Q9NUX5); pull-down; reference: wild-type TPP1, higher = stronger binding to POT1).
`ALB/factor IXa aptamer mature, cys34 conjugate K573P, Cys34 oligodeoxynucleotide, annealed aptamer duplex (Homo sapiens)` has a Kd of 280 ± 80 nM (FCGRT fragment (Homo sapiens); BLI; pH 5.5, 150 mM NaCl).
With `GCG glucagon (Homo sapiens)` the EC50 was 1.04 nM (GCGR (Homo sapiens, UniProt P47871); receptor stimulation, agonist; HEK293).
`TAC1 mature Substance P, C-terminal amide (Homo sapiens)` has a Kd of 16000 nM (TACR1 2-335 (Homo sapiens, UniProt P25103); 1D 19F-NMR).
With `CYP17A1 C22K/P23T/R20A/R21K (Homo sapiens)` the Km was 3.7 µM (CC(=O)[C@H]1CC[C@H]2[C@@H]3CCC4=CC(=O)CC[C@]4(C)[C@H]3CC[C@]12C; steady-state kinetics; 37 °C, truncated form, together with: progesterone 0 – 50 µM, phosphatidylcholine).
For `Aβ42 (UniProt P05067)`, “fold of responding neurons” read 2.4 fold (Grm5 (Rattus norvegicus, UniProt P31424); intracellular Ca2+ increase, Fluo-4 AM calcium imaging; 500 nM, 5-30 min, abolished by mGluR5 antagonist; reference: control, higher = more responding neurons).

Excerpt of the above:
With `APP Aβ1-42, HiLyte Fluor 488 label (UniProt P05067)` the Kd was 6300 ± 1700 nM (MAPT (Homo sapiens, UniProt P10636-8); fluorescence polarisation; without microtubules).
With `CYP17A1 C22K/P23T/R20A/R21K (Homo sapiens)` the Km was 3.7 µM (CC(=O)[C@H]1CC[C@H]2[C@@H]3CCC4=CC(=O)CC[C@]4(C)[C@H]3CC[C@]12C; steady-state kinetics; 37 °C, truncated form, together with: progesterone 0 – 50 µM, phosphatidylcholine).
